Results pooled from the literature.
Each line is one published result; not all experiments were run side by side. ± gives the spread as reported.
ACTA1 pyrene-labeled: Actin, alpha skeletal muscle, pyrene-labeled (ACTA1, Oryctolagus cuniculus, UniProt P68135)
Cytochrome P450 2A13: Cytochrome P450 2A13 (Homo sapiens, UniProt Q16696)
Chain of UniProt Q16696 (whole entry, looked up): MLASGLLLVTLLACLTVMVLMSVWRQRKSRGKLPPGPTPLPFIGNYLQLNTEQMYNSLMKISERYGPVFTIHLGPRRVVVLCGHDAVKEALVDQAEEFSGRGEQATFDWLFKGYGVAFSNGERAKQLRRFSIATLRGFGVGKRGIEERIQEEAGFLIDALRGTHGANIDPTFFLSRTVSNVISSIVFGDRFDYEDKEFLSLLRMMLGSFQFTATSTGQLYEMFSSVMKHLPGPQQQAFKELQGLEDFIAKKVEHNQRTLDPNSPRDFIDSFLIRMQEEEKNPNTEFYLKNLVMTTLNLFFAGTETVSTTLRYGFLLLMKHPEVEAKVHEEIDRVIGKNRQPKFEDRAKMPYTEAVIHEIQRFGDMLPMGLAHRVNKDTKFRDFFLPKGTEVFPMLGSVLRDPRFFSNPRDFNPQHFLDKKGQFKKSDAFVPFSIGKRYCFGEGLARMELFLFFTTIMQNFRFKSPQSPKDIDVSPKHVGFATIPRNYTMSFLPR
gag-pol reverse transcriptase: Gag-Pol polyprotein, reverse transcriptase (gag-pol, Human immunodeficiency virus 1, UniProt P03366)
Uncharacterized protein: Uncharacterized protein (Equus caballus, UniProt Q38RB9)
Ar: Androgen receptor (Ar, Rattus norvegicus, UniProt P15207)
Chain of UniProt Q00987 (whole entry, looked up): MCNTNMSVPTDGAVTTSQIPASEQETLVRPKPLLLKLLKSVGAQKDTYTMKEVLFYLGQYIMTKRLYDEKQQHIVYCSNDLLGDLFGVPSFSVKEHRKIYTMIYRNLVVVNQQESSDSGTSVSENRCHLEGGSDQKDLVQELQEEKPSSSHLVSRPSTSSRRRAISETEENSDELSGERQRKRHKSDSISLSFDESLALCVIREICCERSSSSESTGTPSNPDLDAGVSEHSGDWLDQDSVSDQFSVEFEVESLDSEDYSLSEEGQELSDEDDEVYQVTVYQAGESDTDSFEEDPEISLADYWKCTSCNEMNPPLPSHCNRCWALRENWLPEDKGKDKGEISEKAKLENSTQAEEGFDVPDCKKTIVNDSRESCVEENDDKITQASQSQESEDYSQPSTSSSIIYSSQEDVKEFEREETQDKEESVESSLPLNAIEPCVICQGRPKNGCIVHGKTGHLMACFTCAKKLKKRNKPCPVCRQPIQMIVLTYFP
Chain of UniProt P15207 (whole entry, looked up): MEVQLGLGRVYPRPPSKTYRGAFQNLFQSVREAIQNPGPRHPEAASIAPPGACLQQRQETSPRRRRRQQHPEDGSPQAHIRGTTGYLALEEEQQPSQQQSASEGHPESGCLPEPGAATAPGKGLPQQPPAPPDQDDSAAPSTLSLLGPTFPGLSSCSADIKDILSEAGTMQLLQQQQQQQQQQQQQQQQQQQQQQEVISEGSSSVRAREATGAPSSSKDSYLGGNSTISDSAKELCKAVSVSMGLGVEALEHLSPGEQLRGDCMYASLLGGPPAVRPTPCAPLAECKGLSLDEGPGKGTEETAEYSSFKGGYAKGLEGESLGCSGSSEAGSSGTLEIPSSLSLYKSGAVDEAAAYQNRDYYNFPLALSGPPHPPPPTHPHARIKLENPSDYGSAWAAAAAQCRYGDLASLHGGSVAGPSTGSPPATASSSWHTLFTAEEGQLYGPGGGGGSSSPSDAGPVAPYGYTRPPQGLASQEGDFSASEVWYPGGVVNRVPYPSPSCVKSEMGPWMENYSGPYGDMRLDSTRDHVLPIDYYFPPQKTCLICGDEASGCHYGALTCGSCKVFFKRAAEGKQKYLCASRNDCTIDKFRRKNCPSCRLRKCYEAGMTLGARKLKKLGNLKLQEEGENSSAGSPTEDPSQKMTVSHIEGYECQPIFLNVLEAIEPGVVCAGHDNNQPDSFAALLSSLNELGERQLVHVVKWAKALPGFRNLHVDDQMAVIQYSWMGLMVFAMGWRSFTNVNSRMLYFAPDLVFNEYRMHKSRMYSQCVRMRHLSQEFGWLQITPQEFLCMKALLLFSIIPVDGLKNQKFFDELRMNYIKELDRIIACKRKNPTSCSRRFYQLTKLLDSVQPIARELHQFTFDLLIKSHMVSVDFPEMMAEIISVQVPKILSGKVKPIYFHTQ
Chain of UniProt Q05940 (whole entry, looked up): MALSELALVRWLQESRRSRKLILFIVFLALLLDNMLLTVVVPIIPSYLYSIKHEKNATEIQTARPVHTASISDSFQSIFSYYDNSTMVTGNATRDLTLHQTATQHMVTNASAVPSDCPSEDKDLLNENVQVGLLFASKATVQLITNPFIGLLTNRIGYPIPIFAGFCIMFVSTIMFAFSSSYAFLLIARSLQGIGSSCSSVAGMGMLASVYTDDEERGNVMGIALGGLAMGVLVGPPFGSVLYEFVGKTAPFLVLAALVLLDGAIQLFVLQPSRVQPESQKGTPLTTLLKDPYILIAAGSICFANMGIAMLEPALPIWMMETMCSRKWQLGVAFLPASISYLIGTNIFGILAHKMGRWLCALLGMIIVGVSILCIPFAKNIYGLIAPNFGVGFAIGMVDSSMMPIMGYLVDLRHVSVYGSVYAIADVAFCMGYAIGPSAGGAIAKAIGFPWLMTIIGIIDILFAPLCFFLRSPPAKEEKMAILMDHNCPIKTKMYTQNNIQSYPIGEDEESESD
Chain of UniProt Q9UKF6 (whole entry, looked up): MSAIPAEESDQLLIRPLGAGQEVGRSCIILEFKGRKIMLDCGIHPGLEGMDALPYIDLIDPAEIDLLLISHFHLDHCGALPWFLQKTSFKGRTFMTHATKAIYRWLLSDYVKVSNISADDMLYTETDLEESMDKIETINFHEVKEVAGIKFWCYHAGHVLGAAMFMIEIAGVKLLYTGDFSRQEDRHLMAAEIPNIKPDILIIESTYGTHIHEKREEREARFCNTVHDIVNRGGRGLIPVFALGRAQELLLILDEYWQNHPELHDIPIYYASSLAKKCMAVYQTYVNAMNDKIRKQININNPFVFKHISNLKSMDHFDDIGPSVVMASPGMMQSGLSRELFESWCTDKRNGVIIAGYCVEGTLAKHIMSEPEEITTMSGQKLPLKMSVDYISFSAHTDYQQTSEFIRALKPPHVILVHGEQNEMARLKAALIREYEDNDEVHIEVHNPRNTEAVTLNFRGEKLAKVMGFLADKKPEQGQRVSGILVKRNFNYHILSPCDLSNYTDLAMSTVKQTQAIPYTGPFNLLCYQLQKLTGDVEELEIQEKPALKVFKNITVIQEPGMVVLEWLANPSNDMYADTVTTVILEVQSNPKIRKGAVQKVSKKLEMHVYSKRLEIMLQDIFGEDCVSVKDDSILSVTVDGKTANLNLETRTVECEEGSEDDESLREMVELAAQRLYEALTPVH
Chain of UniProt P21462 (whole entry, looked up): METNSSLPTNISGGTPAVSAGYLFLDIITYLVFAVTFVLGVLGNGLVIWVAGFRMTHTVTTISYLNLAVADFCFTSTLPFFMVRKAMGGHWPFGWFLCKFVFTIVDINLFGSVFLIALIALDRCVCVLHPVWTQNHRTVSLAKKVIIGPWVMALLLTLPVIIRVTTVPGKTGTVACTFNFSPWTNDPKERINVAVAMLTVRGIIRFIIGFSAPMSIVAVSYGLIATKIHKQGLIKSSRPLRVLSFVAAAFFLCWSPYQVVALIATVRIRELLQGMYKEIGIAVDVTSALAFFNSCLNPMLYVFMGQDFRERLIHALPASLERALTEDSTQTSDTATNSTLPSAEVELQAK
Chain of UniProt Q14994 (whole entry, looked up): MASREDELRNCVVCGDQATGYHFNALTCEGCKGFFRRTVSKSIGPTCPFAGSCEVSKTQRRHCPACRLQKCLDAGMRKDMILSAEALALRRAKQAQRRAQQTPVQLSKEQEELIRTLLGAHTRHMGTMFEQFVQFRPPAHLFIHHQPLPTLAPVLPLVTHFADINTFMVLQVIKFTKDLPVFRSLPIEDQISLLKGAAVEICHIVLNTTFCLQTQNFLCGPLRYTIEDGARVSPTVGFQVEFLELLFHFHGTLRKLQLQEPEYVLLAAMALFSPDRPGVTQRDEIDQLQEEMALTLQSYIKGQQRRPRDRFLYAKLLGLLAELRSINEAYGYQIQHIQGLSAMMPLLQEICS
Chain of UniProt P33535 (whole entry, looked up): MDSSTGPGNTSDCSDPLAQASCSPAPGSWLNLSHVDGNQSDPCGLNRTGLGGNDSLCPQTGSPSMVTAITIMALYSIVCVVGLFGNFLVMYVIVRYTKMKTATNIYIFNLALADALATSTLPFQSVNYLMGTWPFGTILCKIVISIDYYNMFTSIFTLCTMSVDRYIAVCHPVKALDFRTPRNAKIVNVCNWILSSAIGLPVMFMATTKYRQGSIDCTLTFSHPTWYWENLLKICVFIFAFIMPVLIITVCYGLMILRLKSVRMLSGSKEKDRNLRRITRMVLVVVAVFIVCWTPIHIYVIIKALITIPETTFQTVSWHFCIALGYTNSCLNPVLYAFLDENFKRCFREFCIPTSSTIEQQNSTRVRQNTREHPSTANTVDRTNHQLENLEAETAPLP
Chain of UniProt Q15391 (whole entry, looked up): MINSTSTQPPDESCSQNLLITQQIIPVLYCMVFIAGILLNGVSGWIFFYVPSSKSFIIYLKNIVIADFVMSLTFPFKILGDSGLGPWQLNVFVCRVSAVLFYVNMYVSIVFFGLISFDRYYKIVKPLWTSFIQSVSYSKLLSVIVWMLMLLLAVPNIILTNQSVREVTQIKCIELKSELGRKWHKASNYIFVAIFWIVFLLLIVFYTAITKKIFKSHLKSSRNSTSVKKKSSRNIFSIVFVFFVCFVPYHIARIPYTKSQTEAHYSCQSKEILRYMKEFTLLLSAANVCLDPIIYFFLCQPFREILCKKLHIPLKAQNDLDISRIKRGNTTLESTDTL
Chain of UniProt P00441 (whole entry, looked up): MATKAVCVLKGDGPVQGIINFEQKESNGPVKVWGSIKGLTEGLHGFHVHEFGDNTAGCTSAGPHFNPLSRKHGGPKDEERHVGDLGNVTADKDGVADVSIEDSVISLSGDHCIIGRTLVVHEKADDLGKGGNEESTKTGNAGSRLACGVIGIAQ

| SMILES | target | assay | system | conditions | IC50 |
| --- | --- | --- | --- | --- | --- |
| CN1CCN(CCOc2c(Cl)cc(C(=O)N[C@@H](Cc3ccccc3)C(=O)O)c(O)c2Cl)CC1 | Cleavage and polyadenylation specificity factor subunit 3 (CPSF3, Homo sapiens, UniProt Q9UKF6) | pre-mRNA cleavage, inhibitor | HeLa nuclear extract | with: Chimera_4 substrate | 6.7 µM |
| CCN1C(=O)SC[C@H]1[C@@]1(O)C[C@H]2C[C@@H](CC[C@H](C)/C=C\C=C\CC/C(C)=C\C(=O)O2)O1 | ACTA1 pyrene-labeled | actin polymerization, pyrene actin | – | – | 0.283 ± 0.051 µM |
| C#Cc1ccc2ccc3cccc4ccc1c2c34 | Cytochrome P450 2A13 | enzyme activity, inhibitor | – | 20 min, pH 7.4 | > 100 µM |
| COc1cccc(C2SCC(=O)N2c2nc(-c3ccc(S(=O)(=O)N4CCOCC4)cc3)cs2)c1 (centres unmarked) | gag-pol reverse transcriptase | – | – | – | > 4 µM |
| O=c1c(O)c(-c2ccccc2)oc2cc(O)cc(O)c12 | Cytochrome P450 2A13 | enzyme activity, inhibitor | – | 20 min, pH 7.4 | 30 to 90 µM |
| CCOC(=O)[C@H]1Cc2c(cc([N+](=O)[O-])cc2[N+](=O)[O-])[C@@H](O)[C@@]12C(=O)Nc1c(F)cccc12 | E3 ubiquitin-protein ligase Mdm2 (MDM2, Homo sapiens, UniProt Q00987) | – | – | – | 0.77 ± 0.09 µM |
| COc1cc2c(cc1OC)C1CC(=O)C(CC(C)C)CN1CC2 (centres unmarked) | Synaptic vesicular amine transporter (SLC18A2, Homo sapiens, UniProt Q05940) | inhibitor | – | – | 0.054 µM |
| CC[C@H](C)[C@H](NC(=O)[C@H](CC(C)C)NC(=O)[C@@H](NC(=O)[C@H](CCCCN)NC(=O)CNC(=O)[C@H](CCCCN)NC(=O)[C@H](Cc1ccccc1)NC(=O)[C@H](CC(=O)O)NC(=O)[C@@H](N)CCCNC(=N)N)[C@@H](C)CC)C(=O)O | Uncharacterized protein | peptide binding, competitor, competitive radioligand binding | purified horse MHC class I | pH 7 | 0.0091 µM |
| NC(N)=NC(=O)c1nc(Cl)c(N2CCCCCC2)nc1N | Genome polyprotein, 3D RNA polymerase (Coxsackievirus B3, UniProt P03313) | RNA polymerase activity, inhibitor, single AMP incorporation | – | Mg2+ preincubation | > 500 µM |
| OC[C@@H]1[C@@H](O)[C@H](O)[C@@H](O)CN1CCc1ccc(CCNc2cc(O)cc(-c3cccnn3)c2)cc1 | Ganab (Mus musculus, UniProt Q8BHN3) | enzyme activity, inhibitor | – | with: 4-methylumbelliferyl substrate | < 0.001 µM |
| CC(C)C[C@H](NC(=O)CNC(=O)[C@@H](NC(=O)[C@H](Cc1c[nH]cn1)NC(=O)CNC(=O)[C@H](CC(N)=O)NC(=O)[C@H](Cc1ccc(O)cc1)NC(=O)[C@H](CC(=O)O)NC(=O)CN)C(C)C)C(=O)O | Uncharacterized protein | peptide binding, competitor, competitive radioligand binding | purified horse MHC class I | pH 7 | 0.0015 µM |
| Cc1cc(O)cc(C)c1C[C@H](N)C(=O)N1Cc2ccccc2CC1C(=O)NCC(=O)NC(Cc1ccc(Cl)cc1)C(=O)N(C)CCC[C@@]1(c2ccc(F)cc2)OCc2cc(C#N)ccc21 (stereo in doubt) | Mu-type opioid receptor (Oprm1, Rattus norvegicus, UniProt P33535) | – | – | – | 0.0741 µM |
| O=C(O)c1cc(-c2ccc([C@H]3C[C@H]4C[C@@H]3CN4)cc2)c2ccc(-c3ccc(C(F)(F)F)cc3)cc2c1 (racemic) | P2Y purinoceptor 14 (P2RY14, Homo sapiens, UniProt Q15391) | antagonist, flow cytometry | CHO expressing target | with: fluorescent antagonist 20 nM | 0.0059 ± 0.0007 µM |
| N#Cc1ccc(Nc2ncc(Cc3ccc(-c4ccccc4)cc3)o2)cc1 | gag-pol reverse transcriptase | enzyme activity, inhibitor | HIV-1 | – | > 100 µM |
| O=C1CSC(c2cccc(Br)c2)N1c1nc(-c2ccc(S(=O)(=O)N3CCCC3)cc2)cs1 (centres unmarked) | gag-pol reverse transcriptase | – | – | – | > 4 µM |
| Nc1ccc(-c2ccccc2)cc1 | Cytochrome P450 2A13 | enzyme activity, inhibitor | – | 20 min, pH 7.4 | > 200 µM |
| CC(=O)[C@H]1CC[C@H]2[C@@H]3C[C@H](C)C4=CC(=O)CC[C@]4(C)[C@H]3[C@@H](O)C[C@]12C | Ar | inhibitor | – | – | 0.257 µM |
| Oc1ccc2ccc3cccc4ccc1c2c34 | Cytochrome P450 2A13 | enzyme activity, inhibitor | – | 20 min, pH 7.4 | > 180 µM |
| C[C@H]1CN(c2n[nH]c3nc(N[C@H]4CC[C@H](NS(=O)(=O)CCC(F)(F)F)CC4)ncc23)CCO1 | Echinoderm microtubule-associated protein-like 4 (Homo sapiens, UniProt Q9HC35) | biochemical | – | – | ≥ 20 µM |
| COC(=O)c1c(C)[nH]c(C(=O)COn2nnc3ccc(S(=O)(=O)N(C)C)cc32)c1C | Genome polyprotein, 3C protease (rhinovirus B14, UniProt P03303) | protease activity, inhibitor, SAMDI-MS | – | – | > 100 µM |
| O=C1CSC(c2cccc(Cl)c2Cl)N1c1cccc(S(=O)(=O)Nc2nccs2)c1 (centres unmarked) | gag-pol reverse transcriptase | – | – | – | > 4 µM |
| COc1cc(Nc2ncc(F)c(Nc3ccc4c(n3)NC(=O)C(C)(C)O4)n2)cc(OC)c1OC | fMet-Leu-Phe receptor (FPR1, Homo sapiens, UniProt P21462) | – | – | – | > 10 µM |
| COC(=O)N(C(=O)N1COC2(C(=O)OC)Cc3cc(Cl)ccc3C2=N1)c1ccc(OC(F)(F)F)cc1 (racemic) | Ar | binding, competitive ligand binding | – | – | > 100 µM |
| O=C(O[C@@H]1Cc2c(O)cc(O)cc2O[C@@H]1c1cc(O)c(O)c(O)c1)c1cc(O)c(O)c(O)c1 | Superoxide dismutase [Cu-Zn], fully metallated (SOD1, Homo sapiens, UniProt P00441) | enzyme activity, inhibitor, XTT | – | – | > 75 µM |
| CO[C@H]1C[C@H](O[C@@H]2/C(C)=C/C[C@@H]3C[C@@H](C[C@]4(CC[C@H](C)[C@@H](C5CCCCC5)O4)O3)OC(=O)[C@@H]3C=C(C)/C(=N/O)[C@H]4OC/C(=C\C=C\[C@@H]2C)[C@]43O)O[C@@H](C)[C@@H]1O | Nuclear receptor subfamily 1 group I member 3 (Homo sapiens, UniProt Q14994) | biochemical | – | – | 2.76 ± 0.99 µM |
| O=C1CSC(c2cccc(F)c2)N1c1nc(-c2ccc(S(=O)(=O)N3CCOCC3)cc2)cs1 (centres unmarked) | gag-pol reverse transcriptase | – | – | – | > 4 µM |
| CC(C)C[C@@H](CNC(=O)N[C@@H](C)CNC(=O)N1CCC[C@H]1C(N)=O)NC(=O)[C@H](C)NC(=O)[C@H](Cc1c[nH]c2ccccc12)NC(=O)[C@H](Cc1ccc(O)cc1)NC(=O)[C@H](CCC(=O)O)NC(=O)[C@H](C)NC(=O)[C@H](Cc1ccccc1)NC(=O)[C@H](CO)NC(=O)[C@@H](N)[C@@H](C)O | E3 ubiquitin-protein ligase Mdm2, with p53 (MDM2, Homo sapiens, UniProt Q00987) | inhibitor | – | – | 0.0546 µM |
| CCN1C(=O)SCC1C1(OC)CC2CC(CCC(C)C=CC=CCCC(C)=CC(=O)O2)O1 (centres unmarked) | ACTA1 pyrene-labeled | actin polymerization, pyrene actin | – | – | > 10 µM |
| CC[C@H](C)[C@H](NC(=O)[C@H](CCCNC(=N)N)NC(=O)[C@H](CC(C)C)NC(=O)[C@@H](NC(=O)[C@H](CCC(N)=O)NC(=O)[C@H](CCCCN)NC(=O)[C@@H](NC(=O)[C@H](CC(=O)O)NC(=O)[C@@H](N)CCCCN)[C@@H](C)O)[C@@H](C)CC)C(=O)O | Uncharacterized protein | peptide binding, competitor, competitive radioligand binding | purified horse MHC class I | pH 7 | 0.077 µM |

A few entries again:
| SMILES | target | assay | system | conditions | IC50 |
| --- | --- | --- | --- | --- | --- |
| COC(=O)N(C(=O)N1COC2(C(=O)OC)Cc3cc(Cl)ccc3C2=N1)c1ccc(OC(F)(F)F)cc1 (racemic) | Ar | binding, competitive ligand binding | – | – | > 100 µM |
| CO[C@H]1C[C@H](O[C@@H]2/C(C)=C/C[C@@H]3C[C@@H](C[C@]4(CC[C@H](C)[C@@H](C5CCCCC5)O4)O3)OC(=O)[C@@H]3C=C(C)/C(=N/O)[C@H]4OC/C(=C\C=C\[C@@H]2C)[C@]43O)O[C@@H](C)[C@@H]1O | Nuclear receptor subfamily 1 group I member 3 (Homo sapiens, UniProt Q14994) | biochemical | – | – | 2.76 ± 0.99 µM |
| CCN1C(=O)SC[C@H]1[C@@]1(O)C[C@H]2C[C@@H](CC[C@H](C)/C=C\C=C\CC/C(C)=C\C(=O)O2)O1 | ACTA1 pyrene-labeled | actin polymerization, pyrene actin | – | – | 0.283 ± 0.051 µM |
| CC[C@H](C)[C@H](NC(=O)[C@H](CC(C)C)NC(=O)[C@@H](NC(=O)[C@H](CCCCN)NC(=O)CNC(=O)[C@H](CCCCN)NC(=O)[C@H](Cc1ccccc1)NC(=O)[C@H](CC(=O)O)NC(=O)[C@@H](N)CCCNC(=N)N)[C@@H](C)CC)C(=O)O | Uncharacterized protein | peptide binding, competitor, competitive radioligand binding | purified horse MHC class I | pH 7 | 0.0091 µM |
